Measurements from different studies.
Compare with care: the assays were run in different laboratories. ± gives the spread as reported.

SMILES | cell line | read-out | technique | time | notes | together with | IC50
CN1CCC(N[C@@H]2CCc3[nH]c4c(C(N)=O)ccc(-c5ccccc5Cl)c4c3C2)CC1 | colorectal cancer organoid sample C | cell growth | CellTiter-Glo | 6 days | – | – | 0.02 µM
COCCOCCOCCOc1ccc(/C=C/C2=[N+]3C(=C(c4cc(OC)cc(OC)c4)c4c(C)c(I)c(/C=C/c5ccc(OCCOCCOCCOC)cc5)n4[B-]3(F)F)C(C)=C2I)cc1 | HEp-2 | phototoxicity | CellTiter-Blue | – | – | light 1.5 J/cm^2 | > 100 µM
C1=[N+]2CCCC[N+]3=Cc4ccc5[n]4[Au-]23[n]2c1ccc2-c1nc2ccccc2nc1-5.F[P-](F)(F)(F)(F)F | ovarian cancer cell lines | – | – | – | NCI60 panel mean | – | 19 µM
CSc1nc(Nc2ccc(/C(C)=N/NC(=O)c3ccc([N+](=O)[O-])cc3)cc2)c(C#N)c(-c2ccccc2)n1 | HCT-116 and MCF7 | cell growth | MTT | – | range over compound group | – | 9.25 to 15.3 µM
N.N.[Cl][Pt+].c1ccc2c(c1)cnc1ccccc12 | HEL 299 | cell growth or viability | resazurin | 72 h | – | – | 2.63 µM
N=C(N/N=C/c1cc2ccccc2c2ccccc12)N/N=C/c1cc2ccccc2c2ccccc12 | hTERT-HPNE | cell growth | crystal violet | 72 h | – | – | 131 ± 10.4 µM
CC(C)(C)CC(C)(C)Nc1c(-c2ccc3c(c2)OCO3)nc2cnccn12 | CT26 | cell growth or viability | MTT | 24 h | – | – | 40.9 µM
COc1cc(OC)cc(C2=C3C(C)=C(I)C(/C=C/c4c[nH]c5ccccc45)=[N+]3[B-](F)(F)n3c(/C=C/c4c[nH]c5ccccc45)c(I)c(C)c32)c1 | HEp-2 | cell growth or viability | resazurin | 24 h | dark | – | > 400 µM
O=C(/C=C/c1cccc(S(=O)(=O)Nc2cccc(F)c2)c1)NO | MOPC-315 | cell growth | – | 24 h | – | – | 0.365 ± 0.019 µM
CCCCCCN(CCCCCC)C1=[S+][Au-2]2([S]1)[c]1ccccc1-c1cccc[n+]12.F[P-](F)(F)(F)(F)F (centres unmarked) | UWB1289 | cell growth or viability | MTT | 72 h | – | – | 2.81 µM
CC(=O)Oc1ccc(/C=C/C(=O)Nc2nc(=O)n([C@@H]3O[C@H](C)[C@@H](OC(C)=O)[C@H]3OC(C)=O)cc2F)cc1OC(C)=O | ASPC1 | cell growth or viability | MTT | 72 h | – | – | 90.1 µM
CC(=O)Nc1ccc(OC(=O)CCC(=O)[O][Pt-2]23([O]C(=O)CCC(=O)Oc4ccc(NC(C)=O)cc4)([NH2+][C@@H]4CCCC[C@H]4[NH2+]2)[O]C(=O)C(=O)[O]3)cc1 | 4T1 | cell growth or viability | MTT | 48 h | – | – | 1.06 µM
CC1OC(OCC2OC(Oc3cc(O)c4c(=O)cc(-c5ccc(O)c(O)c5)oc4c3)C(O)C(O)C2O)C(O)C(O)C1O (centres unmarked) | MDA-MB-231/BCRP BCRP-transfected, multidrug-resistant | cytotoxicity | resazurin reduction | 72 h | – | – | > 100 µM
O=C(Nc1ccccc1)c1ccccc1-n1c(=O)[nH]c2ccc(F)cc2c1=O | B16-F10 | cell growth or viability | MTT | 24 h | – | – | 32.4 µM
O=C1CC[C@H](N2Cc3cc(-c4cnn5ccc(NC6CCCCC6)nc45)ccc3C2=O)C(=O)N1 | MOLM-13 | cell growth | CellTiter luminescence | 72 h | – | – | > 0.1 µM
COc1cc(OC)cc(C2=C3C(C)=C(I)C(/C=C/c4c[nH]c5ccc([N+](=O)[O-])cc45)=[N+]3[B-](F)(F)n3c(/C=C/c4c[nH]c5ccc([N+](=O)[O-])cc45)c(I)c(C)c32)c1 | HEp-2 | cell growth or viability | resazurin | 24 h | dark | – | > 400 µM
O=C1CC[C@H](N2Cc3cc(-c4cnn5ccc(NCc6ccccc6)nc45)ccc3C2=O)C(=O)N1 | MOLM-13 | cell growth | CellTiter luminescence | 72 h | – | – | > 0.1 µM
[Ru+2].c1ccc(-c2cccc(-c3ccccn3)n2)nc1.c1ccc(-c2ccccn2)nc1.c1cnccn1 | HL-60 | cell viability | – | – | – | light 22 J/cm^2 | > 100 µM
C=C(C)C(=O)Nc1ccc(-c2c(-c3ccc(Oc4nccc(C)n4)cc3)c3c(N)ncnc3n2C)cc1 | JMSU-1 | cell growth or viability | ATP luminescence | 96 h | – | – | 0.77 µM
CCCCCCCCCCCCCCOc1c(O)cc(C(=O)O[C@@H]2Cc3c(O)cc(O)cc3O[C@@H]2c2cc(O)c(O)c(O)c2)cc1O | U-87 MG | cell viability | CCK-8 | 24 h | – | – | 26.07 ± 0.08 µM
CSc1nc(Nc2ccc(/C(C)=N/NC(=O)c3ccc([N+](=O)[O-])cc3[N+](=O)[O-])cc2)c(C#N)c(-c2ccccc2)n1 | HCT-116 and MCF7 | cell growth | MTT | – | range over compound group | – | 1.14 to 10.3 µM
COC(=O)[C@H]1[C@H]2C[C@H]3O[C@@]4(CCN3C[C@H]2C[C@@H](OC(=O)c2cc(OC)c(OC)c(OC)c2)[C@@H]1OC)C(=O)Nc1cc(OC)c(-c2ccc(C(C)(C)C)cc2)cc14 | NALM-6 | cell growth or viability | trypan blue | 72 h | – | – | 7.33 µM
NCCNC(=O)c1ccc2[nH]c(C(=O)c3ccc(O)cc3)nc2c1 | SNU-1 (KRAS G12D) | cell viability | CellTiter-Glo | 72 h | – | – | > 300 µM
COc1ccc(CS(=O)(=O)c2ccc3ccccc3c2)cc1NCC(=O)O | SCC-15 | cell growth or viability | MTS | 48 h | – | – | 0.228 µM
C=C(C)C(=O)Nc1ccc(-c2c(C#Cc3cc(OC)cc(OC)c3)c3c(N)ncnc3n2C)cc1 | JMSU-1 | cell growth or viability | ATP luminescence | 96 h | – | – | 0.45 µM
O=C1NCC(Cc2ccccc2)N(CC2CCCN2CC(CC2CCCCC2)N2CC(Cc3ccc(O)cc3)N(CCc3ccccc3)C(=O)C2=O)C1=O (centres unmarked) | MEF | cell growth or viability | ATP luminescence | 72 h | – | – | > 100 µM
O=[N+]([O-])c1ccc(/C=N/NC(=S)Nc2ccccc2)s1 | HEL human lung fibroblasts | cell growth | – | – | – | – | 52.1 µM
C=CC(=O)Nc1ccc(-c2c(-c3ccc(Oc4ccccc4)cc3)c3c(N)ncnc3n2C)cc1 | JMSU-1 | cell growth or viability | ATP luminescence | 96 h | – | – | 0.082 µM
C=C(C)[C@H]1CC[C@@]2(C)CC[C@]3(C)C[C@H]4[C@@H](C)[C@H](O)C[C@H]4/C(C)=C\C[C@H]3[C@H]12 | CT26 | cell growth or viability | MTT | 72 h | – | – | 3.1 µM

A few entries again:
SMILES | cell line | read-out | technique | time | notes | together with | IC50
N=C(N/N=C/c1cc2ccccc2c2ccccc12)N/N=C/c1cc2ccccc2c2ccccc12 | hTERT-HPNE | cell growth | crystal violet | 72 h | – | – | 131 ± 10.4 µM
CC(C)(C)CC(C)(C)Nc1c(-c2ccc3c(c2)OCO3)nc2cnccn12 | CT26 | cell growth or viability | MTT | 24 h | – | – | 40.9 µM
